# Published values from different studies.
# A part holds a random share of what one study measured. Values joined by “and” are separate records of one study, mostly repeats; a detail may differ.

# Series 1
# SMILES: CC[C@@]1(c2cccc(C(F)(F)F)c2)C2=C(Nc3n[nH]cc31)[C@H](F)C(C)(C)CC2=O (single isomer, unassigned)
# Concentration: 1 µM
target,test,scale,remaining binding [%]
"MAP3K11 (Homo sapiens, UniProt Q16584)","binding, competition with immobilised ligand",,100
"EGFR (Homo sapiens, UniProt P00533, L858R)","binding, competition with immobilised ligand",,100
"PIK3CA (Homo sapiens, UniProt P42336, E545A)","kinase binding, KINOMEscan",baseline: DMSO control,88
"MAPKAPK2 (Homo sapiens, UniProt P49137)","kinase binding, KINOMEscan",baseline: DMSO control,91
"PIKFYVE (Homo sapiens, UniProt Q9Y2I7)","kinase binding, KINOMEscan",baseline: DMSO control,97
"DCLK3 (Homo sapiens, UniProt Q9C098)","binding, competition with immobilised ligand",,100
"CSNK1E (Homo sapiens, UniProt P49674)","binding, competition with immobilised ligand",,100
"PIK3CA (Homo sapiens, UniProt P42336)","kinase binding, KINOMEscan",baseline: DMSO control,100
"MAPK1 (Homo sapiens, UniProt P28482)","kinase binding, KINOMEscan",baseline: DMSO control,100
"PIK3C2B (Homo sapiens, UniProt O00750)","binding, competition with immobilised ligand",,100
"CAMK1D (Homo sapiens, UniProt Q8IU85)","kinase binding, KINOMEscan",baseline: DMSO control,100
"CLK2 (Homo sapiens, UniProt P49760)","binding, competition with immobilised ligand",,91
"PIP4K2C (Homo sapiens, UniProt Q8TBX8)","kinase binding, KINOMEscan",baseline: DMSO control,79
"NEK2 (Homo sapiens, UniProt P51955)","binding, competition with immobilised ligand",,11
"CDK14 (Homo sapiens, UniProt O94921)","binding, competition with immobilised ligand",,100
"NLK (Homo sapiens, UniProt Q9UBE8)","binding, competition with immobilised ligand",,95
"AKT2 (Homo sapiens, UniProt P31751)","binding, competition with immobilised ligand",,100

# Series 2
# SMILES: Cc1ncsc1-c1ccc(C(CO)NC(=O)C2CC(O)CN2C(=O)C(C(C)C)n2cc(-c3ccc(COc4c(-c5c(C)c(F)cc6[nH]ncc56)c(C5CC5)cc5c(N6CC7CC6CN7)nc(OC6CCOCC6)nc45)cc3)nn2)cc1 (centres unmarked)
# Route: intravenous
system,setting,concentration
"mouse (PK-59 xenograft), pancreas","10 mg/kg, 48 h",41.3 ng/g
"male Balb/c nu/nu mouse, PK-59 xenograft, plasma","10 mg/kg, 24 h",13.8 ng/mL and 13.2 ng/mL
"male Balb/c nu/nu mouse, PK-59 xenograft, plasma","10 mg/kg, 6 h",278 ng/mL and 174 ng/mL
"male Balb/c nu/nu mouse, PK-59 xenograft, plasma","30 mg/kg, 2 h",6660 ng/mL and 9090 ng/mL
"male Balb/c nu/nu mouse (PK-59 xenograft), tumor","30 mg/kg, 24 h",800 ng/g
"male Balb/c nu/nu mouse (PK-59 xenograft), pancreas","10 mg/kg, 6 h",189 ng/g
"male Balb/c nu/nu mouse (PK-59 xenograft), pancreas","30 mg/kg, 6 h",702 ng/g
"mouse, PK-59 xenograft, pancreas","30 mg/kg, 144 h",17.3 ng/g and 24.1 ng/g

# Series 3
# Structure (SMILES): O=c1[nH]c(=S)n(C[C@H]2CCCO2)c2nc[nH]c12
# MPO: Myeloperoxidase (MPO, Homo sapiens, UniProt P05164)
# Chain of UniProt P05164 (whole entry, looked up): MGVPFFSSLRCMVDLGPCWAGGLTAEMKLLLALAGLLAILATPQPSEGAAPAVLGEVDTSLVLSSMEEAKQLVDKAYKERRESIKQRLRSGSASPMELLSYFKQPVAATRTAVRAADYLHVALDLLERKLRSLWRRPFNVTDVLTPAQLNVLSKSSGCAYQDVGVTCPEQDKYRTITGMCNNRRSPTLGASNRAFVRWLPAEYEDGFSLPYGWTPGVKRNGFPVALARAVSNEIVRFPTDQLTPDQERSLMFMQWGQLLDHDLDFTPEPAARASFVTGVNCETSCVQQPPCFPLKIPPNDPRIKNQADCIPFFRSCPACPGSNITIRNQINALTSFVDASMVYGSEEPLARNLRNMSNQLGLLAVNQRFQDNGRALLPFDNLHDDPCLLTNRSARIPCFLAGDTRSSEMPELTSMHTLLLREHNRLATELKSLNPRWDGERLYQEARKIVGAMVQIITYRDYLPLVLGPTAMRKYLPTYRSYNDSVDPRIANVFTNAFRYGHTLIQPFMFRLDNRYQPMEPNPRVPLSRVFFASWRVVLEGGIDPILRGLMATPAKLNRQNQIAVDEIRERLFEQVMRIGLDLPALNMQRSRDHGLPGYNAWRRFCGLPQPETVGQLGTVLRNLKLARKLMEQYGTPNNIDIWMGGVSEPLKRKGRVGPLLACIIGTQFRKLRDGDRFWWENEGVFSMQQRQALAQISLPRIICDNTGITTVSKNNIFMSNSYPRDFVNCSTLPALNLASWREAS
# AOC3: Amine oxidase [copper-containing] 3 (AOC3, Homo sapiens, UniProt Q16853)
# Chain of UniProt Q16853 (whole entry, looked up): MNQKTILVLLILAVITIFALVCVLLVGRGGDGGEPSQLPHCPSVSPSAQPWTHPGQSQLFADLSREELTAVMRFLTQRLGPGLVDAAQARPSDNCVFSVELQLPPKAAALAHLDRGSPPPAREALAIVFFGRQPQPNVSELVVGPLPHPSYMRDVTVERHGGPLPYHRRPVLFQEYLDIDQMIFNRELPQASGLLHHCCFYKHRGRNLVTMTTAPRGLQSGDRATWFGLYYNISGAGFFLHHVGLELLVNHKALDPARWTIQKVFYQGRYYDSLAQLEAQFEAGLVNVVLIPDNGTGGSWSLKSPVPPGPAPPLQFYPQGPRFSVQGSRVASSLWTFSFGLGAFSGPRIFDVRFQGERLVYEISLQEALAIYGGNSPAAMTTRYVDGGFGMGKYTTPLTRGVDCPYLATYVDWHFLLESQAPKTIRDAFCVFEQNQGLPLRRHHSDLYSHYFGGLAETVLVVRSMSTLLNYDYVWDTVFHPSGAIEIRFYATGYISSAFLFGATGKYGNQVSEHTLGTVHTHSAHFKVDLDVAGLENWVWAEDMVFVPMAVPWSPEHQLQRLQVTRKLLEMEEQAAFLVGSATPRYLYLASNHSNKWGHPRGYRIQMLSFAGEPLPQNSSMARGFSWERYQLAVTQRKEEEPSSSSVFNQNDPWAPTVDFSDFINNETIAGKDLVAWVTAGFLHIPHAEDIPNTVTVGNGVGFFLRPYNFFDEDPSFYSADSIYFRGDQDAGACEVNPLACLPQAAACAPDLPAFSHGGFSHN
target,test,setting,inhibition
MPO,"enzyme activity, inhibitor, fluorescence",0.1235 µM,52.5% and 81.7% and 67.8% and 71.4% and 59.5% and 69.9%
MPO,enzyme activity,0.0008 µM,-15% and -9.71% and -22.1% and -1.68% and -15.2% and -10.4% and 15.2%
AOC3,"enzyme activity, Amplex Red H2O2 production",0.0005 µM,6.3%
MPO,enzyme activity,15 µM,99.9% and 100% and 99.6%
MPO,Amplex Red,0.3704 µM,90.8%
AOC3,"enzyme activity, Amplex Red H2O2 production",0.0046 µM,8.65%
AOC3,"enzyme activity, Amplex Red H2O2 production",0.0015 µM,6.58%
AOC3,"enzyme activity, Amplex Red H2O2 production",0.1235 µM,8.67%

# Series 4
# Target: E3 ubiquitin-protein ligase NEDD4, HECT domain (Homo sapiens, UniProt P46934)
# Observed: enzyme activity
# Mode: inhibitor
# Technique: Ub-TR-FRET
# Sample: HECT domain
# Concentration: 3.704 µM
# Reading: higher = more chain formation
# Target sequence (P46934 938-1319, limits assumed): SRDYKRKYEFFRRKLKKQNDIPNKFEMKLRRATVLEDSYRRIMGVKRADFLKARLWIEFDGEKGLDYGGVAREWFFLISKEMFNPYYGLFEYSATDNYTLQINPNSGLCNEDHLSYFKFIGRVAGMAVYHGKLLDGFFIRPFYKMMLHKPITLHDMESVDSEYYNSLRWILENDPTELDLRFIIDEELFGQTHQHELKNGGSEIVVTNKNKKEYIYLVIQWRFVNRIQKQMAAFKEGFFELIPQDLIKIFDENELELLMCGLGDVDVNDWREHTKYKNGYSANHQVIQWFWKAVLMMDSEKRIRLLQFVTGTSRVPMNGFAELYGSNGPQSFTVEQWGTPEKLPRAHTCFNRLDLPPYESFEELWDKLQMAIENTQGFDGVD
SMILES,ubiquitin chain formation AUC
CCOC(=O)/C=C/CN(CC)CCCCN1c2ccccc2CCc2ccc(Cl)cc21.O=C(O)/C=C\C(=O)O,27700 a.u. and 37300 a.u. and 27900 a.u. and 44500 a.u. and 40200 a.u. and 29500 a.u.
CCOC(=O)/C=C/CNCCCCN1c2cc(Cl)ccc2C(=O)N(C)c2ccccc21.O=C(O)/C=C\C(=O)O,22700 a.u. and 21400 a.u. and 18500 a.u.
CCOC(=O)/C=C/CNCCCCN1c2ccccc2COc2ccc(Cl)cc21.O=C(O)/C=C\C(=O)O,10900 a.u. and 11900 a.u. and 11200 a.u.
CCONC(=O)/C=C/CNCCCCN1c2ccccc2CCc2ccc(Cl)cc21.O=C(O)/C=C\C(=O)O,4530 a.u. and 5340 a.u. and 5470 a.u. and 5380 a.u. and 4880 a.u. and 4570 a.u.
CONC(=O)/C=C/CNCCCCN1c2ccccc2CCc2ccc(Cl)cc21.O=C(O)/C=C\C(=O)O,7380 a.u. and 9440 a.u. and 8490 a.u. and 9190 a.u. and 9360 a.u. and 8410 a.u.
CN(C)C/C=C/C(=O)NCCCN1c2ccccc2CCc2ccc(Cl)cc21,125000 a.u. and 124000 a.u. and 126000 a.u.
CNC(=O)/C=C/CNCCCN1c2ccccc2CCc2ccc(Cl)cc21.Cl,123000 a.u. and 124000 a.u. and 125000 a.u.
CCOC(=O)/C=C/CN(CCCCN1c2ccccc2CCc2ccc(Cl)cc21)C(C)C.O=C(O)/C=C\C(=O)O,29700 a.u. and 31400 a.u. and 27000 a.u. and 35200 a.u. and 29400 a.u. and 27200 a.u.

# Series 5
# SMILES: C[C@@H]1CN(c2ccc(-c3cc(C(=O)NCCOCCOCCOCCOCCNC(=O)/C=C/c4[nH]cc(C(=O)N[C@@H](CC(N)=O)c5ccc(F)c(Cl)c5)c4-c4ccc(Cl)cc4F)ccc3F)cc2NC(=O)c2c[nH]c(=O)cc2C(F)(F)F)C[C@H](C)N1C
# Observed: thermal unfolding
# Technique: differential scanning fluorimetry
# Concentration: 5.5 µM
# Reading: higher = more unfolded
# WDR5: WD repeat-containing protein 5 (WDR5, Homo sapiens, UniProt P61964)
# DCAF1: DDB1- and CUL4-associated factor 1 (DCAF1, Homo sapiens, UniProt Q9Y4B6)
# Chain of UniProt Q9Y4B6 (whole entry, looked up): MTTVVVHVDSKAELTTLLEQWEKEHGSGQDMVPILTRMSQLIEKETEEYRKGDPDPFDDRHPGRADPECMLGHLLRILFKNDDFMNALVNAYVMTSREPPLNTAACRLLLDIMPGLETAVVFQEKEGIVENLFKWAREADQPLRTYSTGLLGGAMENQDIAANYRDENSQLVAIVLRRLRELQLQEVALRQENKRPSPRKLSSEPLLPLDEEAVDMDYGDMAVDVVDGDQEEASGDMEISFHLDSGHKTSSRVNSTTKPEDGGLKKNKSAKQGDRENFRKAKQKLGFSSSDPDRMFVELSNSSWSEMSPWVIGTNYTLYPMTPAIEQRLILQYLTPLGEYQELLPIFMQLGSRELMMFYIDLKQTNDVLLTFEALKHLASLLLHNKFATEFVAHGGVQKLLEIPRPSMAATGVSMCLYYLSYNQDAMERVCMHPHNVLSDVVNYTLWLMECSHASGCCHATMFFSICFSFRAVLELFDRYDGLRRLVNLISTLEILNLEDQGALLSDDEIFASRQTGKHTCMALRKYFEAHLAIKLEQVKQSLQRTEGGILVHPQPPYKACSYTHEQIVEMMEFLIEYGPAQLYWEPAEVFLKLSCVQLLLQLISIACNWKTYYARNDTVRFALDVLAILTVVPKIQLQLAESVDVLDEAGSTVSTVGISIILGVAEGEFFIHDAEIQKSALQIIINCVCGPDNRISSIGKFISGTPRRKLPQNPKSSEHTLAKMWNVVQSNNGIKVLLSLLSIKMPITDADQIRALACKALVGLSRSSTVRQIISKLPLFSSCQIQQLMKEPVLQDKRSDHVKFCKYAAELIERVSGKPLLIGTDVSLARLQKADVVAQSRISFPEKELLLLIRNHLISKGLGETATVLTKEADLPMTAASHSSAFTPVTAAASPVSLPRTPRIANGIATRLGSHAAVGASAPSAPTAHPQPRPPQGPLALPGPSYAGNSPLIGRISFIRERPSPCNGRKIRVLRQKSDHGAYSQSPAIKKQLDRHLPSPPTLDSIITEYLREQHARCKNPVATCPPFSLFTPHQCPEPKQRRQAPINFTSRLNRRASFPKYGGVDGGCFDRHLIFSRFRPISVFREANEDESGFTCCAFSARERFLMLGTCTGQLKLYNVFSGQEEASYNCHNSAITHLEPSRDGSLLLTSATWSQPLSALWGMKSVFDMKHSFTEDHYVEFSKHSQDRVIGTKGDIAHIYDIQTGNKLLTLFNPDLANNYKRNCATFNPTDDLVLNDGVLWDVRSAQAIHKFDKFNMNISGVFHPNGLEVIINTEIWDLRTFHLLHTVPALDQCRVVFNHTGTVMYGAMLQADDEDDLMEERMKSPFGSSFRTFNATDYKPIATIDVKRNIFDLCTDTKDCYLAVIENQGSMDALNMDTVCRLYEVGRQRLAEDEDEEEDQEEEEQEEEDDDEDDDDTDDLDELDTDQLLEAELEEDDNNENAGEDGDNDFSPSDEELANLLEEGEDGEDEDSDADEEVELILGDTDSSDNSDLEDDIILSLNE
target,setting,SYPRO Orange fluorescence [a.u.]
WDR5,70.81 °C,17300
DCAF1,40.2 °C,11600
DCAF1,89.21 °C,35900
WDR5,28.8 °C,12800
WDR5,53.01 °C,16800
WDR5,69.41 °C,15500
WDR5,56.21 °C,16800
DCAF1,84.21 °C,41100
DCAF1,82.41 °C,42700
DCAF1,58.01 °C,31300
WDR5,77.41 °C,32500

# Series 6
# SMILES: CCN1/C(=C/C=C2\CCCC(/C=C/C3=[N+](CC)c4ccccc4C3(C)C)=C2NCCCCCCCCN2CCC(Nc3nc4ccccc4n3Cc3ccc(F)cc3)CC2)C(C)(C)c2ccccc21
# Cell line: U-87 MG
# Concentration: concentration not given
# Baseline: DMSO
test,log2 fold change
item: ACTA2 mRNA,-2.02
item: CXCL3 mRNA,2.46
item: ZFAND5 mRNA,0.926
item: HES7 mRNA,2.76
item: ABCC2 mRNA,-2.07
item: ARHGAP11B mRNA,-1.8
item: ATP2B4 mRNA,-1.6
item: CKLF mRNA,-1.22
item: MYO3B mRNA,-2.56
item: CCNO mRNA,1.44
item: PCYOX1L mRNA,-1.34
item: IFFO1 mRNA,-0.985
item: CCDC121 mRNA,-1.4
item: FOXO3 mRNA,0.825
item: SERPINB8 mRNA,1.92
item: AGFG2 mRNA,-1.09

# Series 7
# Compound: CCN(CC)CC(=O)N1CCN(c2nc(NCc3nc4cc(Cl)c(Cl)cc4[nH]3)c3ncn(CC)c3n2)CC1
# Observed: enzyme activity
# Mode: inhibitor
# Technique: ADP detection
# CDK13: Cyclin-dependent kinase 13 (CDK13, Homo sapiens, UniProt Q14004)
# Chain of UniProt Q14004 (whole entry, looked up): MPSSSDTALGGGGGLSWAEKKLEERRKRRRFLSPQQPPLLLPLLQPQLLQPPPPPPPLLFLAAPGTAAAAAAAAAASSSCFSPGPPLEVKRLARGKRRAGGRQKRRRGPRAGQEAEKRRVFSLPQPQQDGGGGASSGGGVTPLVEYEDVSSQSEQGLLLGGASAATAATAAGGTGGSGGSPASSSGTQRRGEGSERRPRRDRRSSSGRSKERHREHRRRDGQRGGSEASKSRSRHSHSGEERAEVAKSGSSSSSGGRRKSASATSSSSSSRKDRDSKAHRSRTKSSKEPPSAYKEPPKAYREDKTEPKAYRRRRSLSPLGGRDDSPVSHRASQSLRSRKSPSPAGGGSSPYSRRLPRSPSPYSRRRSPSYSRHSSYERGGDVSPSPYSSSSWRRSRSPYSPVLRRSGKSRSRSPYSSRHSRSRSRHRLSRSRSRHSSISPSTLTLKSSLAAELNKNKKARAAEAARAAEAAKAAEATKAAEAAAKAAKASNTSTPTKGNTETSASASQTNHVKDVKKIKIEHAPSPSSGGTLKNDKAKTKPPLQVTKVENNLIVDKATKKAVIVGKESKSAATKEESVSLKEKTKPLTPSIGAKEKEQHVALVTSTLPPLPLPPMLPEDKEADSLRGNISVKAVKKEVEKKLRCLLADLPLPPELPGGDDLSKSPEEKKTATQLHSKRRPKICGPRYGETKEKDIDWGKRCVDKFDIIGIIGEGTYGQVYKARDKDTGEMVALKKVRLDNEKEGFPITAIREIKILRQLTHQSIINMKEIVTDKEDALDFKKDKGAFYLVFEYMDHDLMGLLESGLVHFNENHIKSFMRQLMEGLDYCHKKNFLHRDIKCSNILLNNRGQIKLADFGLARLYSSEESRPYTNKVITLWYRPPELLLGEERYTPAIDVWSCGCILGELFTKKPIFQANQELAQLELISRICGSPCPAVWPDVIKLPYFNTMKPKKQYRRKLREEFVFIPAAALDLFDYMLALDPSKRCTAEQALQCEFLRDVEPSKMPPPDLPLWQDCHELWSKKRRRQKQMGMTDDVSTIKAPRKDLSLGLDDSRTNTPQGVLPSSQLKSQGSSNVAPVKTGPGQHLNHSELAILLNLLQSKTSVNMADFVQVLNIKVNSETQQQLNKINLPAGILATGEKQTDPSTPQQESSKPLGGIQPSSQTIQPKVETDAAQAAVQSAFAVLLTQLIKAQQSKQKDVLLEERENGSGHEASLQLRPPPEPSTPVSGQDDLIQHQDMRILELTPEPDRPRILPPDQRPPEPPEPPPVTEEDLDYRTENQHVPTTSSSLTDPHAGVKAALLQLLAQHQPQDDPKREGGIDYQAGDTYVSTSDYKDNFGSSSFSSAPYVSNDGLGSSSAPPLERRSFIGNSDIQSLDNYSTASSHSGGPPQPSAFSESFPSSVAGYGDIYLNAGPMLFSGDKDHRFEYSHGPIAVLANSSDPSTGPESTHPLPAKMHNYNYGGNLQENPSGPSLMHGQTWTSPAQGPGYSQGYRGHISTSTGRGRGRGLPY
# CDK7: Cyclin-dependent kinase 7 (CDK7, Homo sapiens, UniProt P50613)
# Chain of UniProt P50613 (whole entry, looked up): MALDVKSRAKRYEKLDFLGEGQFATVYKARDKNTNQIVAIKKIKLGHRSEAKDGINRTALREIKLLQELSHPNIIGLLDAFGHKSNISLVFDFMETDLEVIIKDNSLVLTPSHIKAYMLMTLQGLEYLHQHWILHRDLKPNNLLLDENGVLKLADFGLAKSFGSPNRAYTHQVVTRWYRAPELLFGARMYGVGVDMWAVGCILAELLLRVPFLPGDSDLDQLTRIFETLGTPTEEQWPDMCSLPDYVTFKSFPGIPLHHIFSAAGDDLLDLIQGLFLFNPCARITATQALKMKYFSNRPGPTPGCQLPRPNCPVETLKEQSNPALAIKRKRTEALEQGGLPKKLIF
# CDK9: Cyclin-dependent kinase 9 (CDK9, Homo sapiens, UniProt P50750)
target,setting,inhibition [%]
CDK13,1.5 nM,-1.5
CDK7,0.1235 µM,31.6
CDK9,1.5 nM,-0.7
CDK7,4.6 nM,18.8
"CDK2 (Homo sapiens, UniProt P24941)",0.3704 µM,8
CDK13,0.1235 µM,17.9
CDK13,4.6 nM,-9.5
CDK9,10 µM,87.7

# Series 8
# Compound: COCC1CC2C(CCC3C(O)CCC32)c2ccc(O)cc21 (centres unmarked)
# Cell line: SK-OV-3
# Technique: DNA microarray
test,setting,scale,expression ratio
item: UBD,100 µM,baseline: untreated,0.566
item: UBD,25 µM,baseline: untreated,0.777
item: ACTB,25 µM,baseline: untreated control,0.83 and 0.819 and 0.831 and 0.81 and 0.86
item: UBB,25 µM,baseline: untreated,0.846
item: GAPDH,100 µM,baseline: untreated control,0.96 and 0.954 and 0.95 and 0.934 and 0.94
item: CCL8,25 µM,baseline: untreated control,1
item: CCL1,25 µM,baseline: untreated,5.4
item: ACTB,100 µM,baseline: untreated control,0.523 and 0.528 and 0.545 and 0.513 and 0.511
item: GAPDH,25 µM,baseline: untreated control,0.834 and 0.857 and 0.852 and 0.831 and 0.839

# Other studies, line by line
# Target: Membrane-associated tyrosine- and threonine-specific cdc2-inhibitory kinase (PKMYT1, Homo sapiens, UniProt Q99640)
# Residues used in one study (Q99640 1-499): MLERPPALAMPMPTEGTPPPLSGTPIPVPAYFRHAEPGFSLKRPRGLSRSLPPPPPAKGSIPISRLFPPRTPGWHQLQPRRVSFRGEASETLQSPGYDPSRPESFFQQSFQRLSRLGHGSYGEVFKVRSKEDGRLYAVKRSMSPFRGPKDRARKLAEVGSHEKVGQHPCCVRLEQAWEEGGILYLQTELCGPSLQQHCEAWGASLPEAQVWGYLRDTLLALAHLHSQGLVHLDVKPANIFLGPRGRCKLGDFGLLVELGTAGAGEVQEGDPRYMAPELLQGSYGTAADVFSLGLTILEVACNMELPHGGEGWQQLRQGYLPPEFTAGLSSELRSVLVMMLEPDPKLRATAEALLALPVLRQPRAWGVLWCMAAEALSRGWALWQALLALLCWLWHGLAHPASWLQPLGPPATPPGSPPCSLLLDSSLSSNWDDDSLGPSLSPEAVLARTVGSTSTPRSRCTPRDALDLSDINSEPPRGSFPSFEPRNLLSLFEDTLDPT
Compound,test,setting,scale,measurement,value
Cc1ccc(O)c(C)c1-c1cnc2[nH]c(-c3cnc(N4CCC(CCN5CCN(c6cc7c(cc6F)c(N6CCC(=O)NC6=O)nn7C)CC5)CC4)nc3)cc2c1C#N,"degrader, automated immunoblot (Jess)",1 nM,baseline: GAPDH,protein level,38.1%
Cc1ccc(O)c(C)c1-c1cnc2[nH]c(-c3cnc(N4CCC5(CC4)CC(N4CCN(c6ccc7c(c6)C(=O)N(C6CCC(=O)NC6=O)C7=O)CC4)CO5)nc3)cc2c1C#N (mixture of isomers),"binding, HTRF",0.051 nM,,inhibition,0.035% and 0.709%
Cc1ncc(-c2cc3c(N)c(-c4c(C)ccc(O)c4C)cnc3[nH]2)cn1,"binding, HTRF",0.15 nM,,inhibition,-13.1% and -11.3%
Cc1ccc(O)c(C)c1-c1cnc2[nH]c(-c3cnc(N4CCC(CCN5CCN(c6ccc(N7CCC(=O)NC7=O)cc6F)CC5)CC4)nc3)cc2c1C#N,"binding, HTRF",4.12 nM,,inhibition,67.3% and 66.9%

# Repeated from above (series 1):
target,test,scale,remaining binding [%]
"PIP4K2C (Homo sapiens, UniProt Q8TBX8)","kinase binding, KINOMEscan",baseline: DMSO control,79
"AKT2 (Homo sapiens, UniProt P31751)","binding, competition with immobilised ligand",,100
"CLK2 (Homo sapiens, UniProt P49760)","binding, competition with immobilised ligand",,91
"PIKFYVE (Homo sapiens, UniProt Q9Y2I7)","kinase binding, KINOMEscan",baseline: DMSO control,97
"MAPK1 (Homo sapiens, UniProt P28482)","kinase binding, KINOMEscan",baseline: DMSO control,100
"CSNK1E (Homo sapiens, UniProt P49674)","binding, competition with immobilised ligand",,100
"NEK2 (Homo sapiens, UniProt P51955)","binding, competition with immobilised ligand",,11
"MAPKAPK2 (Homo sapiens, UniProt P49137)","kinase binding, KINOMEscan",baseline: DMSO control,91
"PIK3CA (Homo sapiens, UniProt P42336)","kinase binding, KINOMEscan",baseline: DMSO control,100
"CAMK1D (Homo sapiens, UniProt Q8IU85)","kinase binding, KINOMEscan",baseline: DMSO control,100
